Measurements gathered from unrelated publications.
Protocols differ between the studies behind these lines. “And” joins repeats or separate records; there may be more than shown. Numbers after ± are the reported error.

| SMILES | assay | system | setting | scale | quantity | result |
| --- | --- | --- | --- | --- | --- | --- |
| C=CC(=O)Nc1cccc(Cn2ncc3cnc(Nc4cnn(CCOC)c4)nc32)c1 |  | male Sprague-Dawley rat | oral, 180 mg/kg/day, day 28, 28-day subacute toxicity |  | serum TG | 0.99 ± 0.65 mM |
| CC(C)(c1cc(Br)c(O)c(Br)c1)c1cc(Br)c(O)c(Br)c1 | ultrafiltration | cow milk whey | 2000 nM nominal in whole milk |  | dose fraction in permeate | 5.74% |
| CCN(Cc1ccccc1)C(=O)CCc1nc(CN2CCN(C(=O)Cc3ccc(OC)c(OC)c3)CC2)no1 | rotarod test | mouse, CCI neuropathic pain model | 20 mg/kg |  | time to first slip | 1 ± 0.09 min |
| CC(C)[C@@H]1NC(=O)CNC(=O)[C@H](CC(N)=O)NC(=O)[C@H](CCCNC(=N)N)NC(=O)[C@H](Cc2ccc(O)cc2)NC(=O)[C@H](C(C)C)NC(=O)[C@@H](NC(=O)[C@@H](NC(=O)[C@H](CC(N)=O)NC(=O)[C@H](Cc2c[nH]c3ccccc23)NC(=O)[C@H](C)NC(=O)[C@H](Cc2ccccc2)NC(=O)CNC(=O)[C@H](CCCCN)NC(=O)[C@H](Cc2ccccc2)NC(=O)[C@H](Cc2ccccc2)NC(=O)[C@H](CCCCN)NC(=O)OCC2c3ccccc3-c3ccccc32)C(C)C)CSSC[C@@H](C(=O)N[C@@H](Cc2c[nH]cn2)C(=O)N[C@@H](CCCNC(=N)N)C(=O)N[C@@H](CCCNC(=N)N)C(=O)N[C@@H](C)C(=O)N[C@@H](CC(N)=O)C(N)=O)NC(=O)[C@H](C(C)C)NC(=O)[C@H](CCCNC(=N)N)NC1=O |  | ICR mice, serum | intraperitoneal, 10 mg/kg, day 5 |  | AST | 26 ± 0.76 IU/L |
| CC1(C)C(=O)N(c2ccc(C#N)c(C(F)(F)F)c2)C(=S)N1c1ccc(C(=O)O)c(F)c1 |  | male human, plasma | oral, 40 mg, single dose, fasted |  | MRT | 12.5 days |
| CC[C@H](C)[C@H](NC(=O)[C@H](CC(C)C)NC(=O)CNC(=O)[C@H](Cc1c[nH]cn1)NC(=O)[C@@H](NC(=O)[C@H](Cc1c[nH]c2ccccc12)NC(=O)[C@H](CCCCN)NC(=O)CNC(=O)[C@@H](NC(=O)[C@H](Cc1c[nH]cn1)NC(=O)[C@H](Cc1c[nH]cn1)NC(=O)[C@@H](NC(=O)CNC(=O)[C@H](Cc1c[nH]cn1)NC(=O)[C@H](Cc1ccccc1)NC(=O)[C@H](CC(C)C)NC(=O)[C@H](CC(C)C)NC(=O)CNC(=O)[C@H](CC(C)C)NC(=O)[C@@H](N)Cc1ccccc1)C(C)C)C(C)C)[C@@H](C)CC)C(=O)N[C@@H](Cc1c[nH]cn1)C(=O)NCC(=O)N[C@@H](Cc1c[nH]cn1)C(=O)N[C@@H](Cc1c[nH]cn1)C(N)=O |  | zebrafish embryos 4 hpf, E3 medium | 1 h |  | acute toxic concentration | 5 µM |
| O=C1NC2(CC2)COc2ncc(F)cc2[C@H]2COCCN2c2ccn3ncc1c3n2 |  | Sprague-Dawley rat, female, serum | oral, 2.5 mg/kg/day, 4 weeks daily, end of recovery period |  | glucose | 7.58 ± 0.84 mmol/L |
| CCC1CC(c2ccc(C(=O)O)cc2C)=NN1c1ccc(C#N)c(Cl)c1 (stereo not drawn) |  | human, liver microsomes | 1 µM |  | intrinsic clearance | < 5 µL/min/mg |
| CC(C)=CCC/C(C)=C\CCn1cc(CC(P(=O)(O)O)P(=O)(O)O)nn1 |  | CD-1 mouse, plasma | intravenous, 0.5 mg/kg, single dose |  | Vd | 144 L/kg |
| CC(C)Oc1cccc(/N=N/c2ccc3[nH]cc(CCN(C)C)c3c2)c1 | light irradiation | solution | with: light 530 nm |  | trans isomer at photostationary state | 98% |
| CC[C@H](C)[C@H](NC(=O)[C@H](CCCCN)NC(=O)CNC(=O)[C@H](CC(C)C)NC(=O)[C@H](Cc1ccccc1)NC(=O)[C@H](CCCCN)NC(=O)[C@H](CO)NC(=O)[C@H](Cc1ccccc1)NC(=O)[C@H](Cc1c[nH]c2ccccc12)NC(=O)[C@H](CCC(N)=O)NC(=O)[C@@H](NC(=O)[C@H](Cc1ccccc1)NC(=O)CCCCCNC(=O)CN1CCN(CC(=O)O)CCN(CC(=O)O)CCN(CC(=O)O)CC1)C(C)C)C(=O)N[C@@H](CCC(=O)O)C(=O)N1CCC[C@H]1C(=O)N[C@@H](CC(=O)O)C(=O)N[C@H](C(=O)N[C@@H](CO)C(=O)N[C@@H](CCC(N)=O)C(=O)N[C@H](C(=O)N[C@@H](CCC(N)=O)C(=O)N[C@@H](CC(=O)O)C(=O)N1CCC[C@H]1C(=O)N[C@@H](CC(N)=O)C(=O)N[C@@H](CC(=O)O)C(=O)N[C@@H](CCC(N)=O)C(=O)N[C@@H](Cc1ccc(O)cc1)C(=O)N[C@@H](CCC(=O)O)C(=O)N1CCC[C@H]1C(=O)N[C@@H](Cc1ccccc1)C(=O)O)C(C)C)C(C)C [copper-64 labelled] | dynamic PET | mouse both sexes, CT26 tumour, checkpoint inhibitor-treated, tumour | intravenous, 100 µCi/mouse, 170 s |  | SUVmean | 2.32 SUV |
| CSCC[C@@H]1NC(=O)[C@H](C(C)C)NC(=O)[C@H](CCCNC(=N)N)NC(=O)CNC(=O)[C@@H]2CCCN2C(=O)[C@@H](NC(=O)CNC(=O)[C@H](CO)NC(=O)CNC(=O)[C@H](CO)NC(=S)Nc2ccc(C[C@H]3CN(CC(=O)O)CCN(CC(=O)O)CCN3CC(=O)O)cc2)CSSC[C@@H](C(N)=O)NC(=O)[C@@H]2CCCN2C(=O)CNC(=O)[C@H](CCC(=O)O)NC(=O)[C@H](CC(=O)O)NC(=O)[C@H](CC(=O)O)NC(=O)CNC(=O)[C@H](CC(C)C)NC(=O)[C@H](Cc2c[nH]cn2)NC(=O)[C@H](CC(C)C)NC(=O)CNC(=O)[C@H](Cc2c[nH]cn2)NC1=O [copper-64 labelled] | SE-HPLC | rat serum | concentration not given, 1 h, 37 °C |  | albumin-bound radioactivity | 3.3% |
| CC[C@H](C)[C@H](NC(=O)[C@H](Cc1c[nH]c2ccccc12)NC(=O)c1ccccc1)C(=O)N[C@H](C(=O)N[C@@H](Cc1ccc(O)cc1)C(=O)N[C@@H](CCCCN)C(=O)N[C@@H](Cc1c[nH]c2ccccc12)C(=O)N[C@H](CCCNC(=N)N)C(=O)N[C@@H](CCCNC(=N)N)C(=O)N[C@@H](CCCCN)C(=O)N[C@H](C(=O)N[C@H](C(=O)N[C@@H](CCCNC(=N)N)C(=O)N[C@@H](Cc1ccc(O)cc1)C(=O)N[C@@H](Cc1c[nH]c2ccccc12)C(=O)N[C@H](C(=O)NCC(=O)N[C@@H](CCCCN)C(=O)N[C@@H](CCCNC(=N)N)C(N)=O)[C@@H](C)O)C(C)C)C(C)C)C(C)C | circular dichroism | phosphate buffer | 30 µM, pH 6.5 |  | melting temperature | 55.1 °C |
| COc1ccc(CNc2ccc3c(c2)S(=O)(=O)C=C3)cc1 |  | male C57BL/6 mice, blood | intraperitoneal, 20 mg/kg, day 8, group average |  | platelet distribution width | 14.8% |
| C=Cc1c(C)c2cc3nc(c(CC(=O)[O-])c4[n-]c(cc5nc(cc1[n-]2)C(C)=C5CC)c(C)c4C(=O)[O-])C(CCC(=O)[O-])C3C.[Cu+2].[Na+].[Na+].[Na+] (stereo not drawn) |  | Wistar rat, female | oral, 1000 mg/kg daily, 28 days |  | serum creatinine | 0.42 ± 0.1 mg/dL |
| CC(C)C[C@@H](NC(=O)[C@@H](CCCCN)NC(=O)CNC(=O)CNC(=O)[C@@H]1CSSC[C@H](N)C(=O)NCC(=O)N[C@@H](CCCNC(=N)N)C(=O)N[C@@H](CCCNC(=N)N)C(=O)N[C@@H](C)C(=O)NCC(=O)NCC(=O)N[C@@H](CO)C(=O)N1)C(=O)N[C@H](C)C(=O)N[C@H](CCCCN)C(=O)N[C@H](CC(C)C)C(=O)N[C@H](C)C(=O)N[C@H](CCCCN)C(=O)N[C@H](CCCCN)C(=O)N[C@H](CC(C)C)C(=O)N[C@H](C)C(=O)N[C@H](CCCCN)C(=O)N[C@H](CC(C)C)C(=O)N[C@H](C)C(=O)N[C@H](CCCCN)C(=O)O |  | mouse, plasma | intravenous, 15 mg/kg |  | Vd | 0.0062 L |
| CCCCCCCCCCCC(=O)C(C)C(=O)N1CCC[C@H]1C(=O)NC(C)(C)C(=O)NC(C)(C)C(=O)NC(C)(C)C(=O)N[C@](C)(CC)C(=O)NCCC(=O)N[C@@H](C)C(=O)N[C@](C)(CC)C(=O)N[C@@H](C)C(=O)N[C@@H](CC(C)C)C(=O)N[C@](C)(CC)C(=O)NCCC(=O)N[C@@H](C)C(=O)N[C@](C)(CC)C(=O)NCCC(=O)N[C@@H](C)C(=O)NC(C)(C)C(=O)NC(C)(C)C(=O)NC(C)(C)C(=O)N[C@@H](C)C(=O)N[C@@H](CC(=O)O)C(=O)O (stereo partly drawn) | LC-MS | buffer with human neutrophil elastase | 40 µM, 720 min, pH 7.5, 37 °C | baseline: 0 h | remaining intact peptide | 53.3% and 46% and 57.6% |
| CC1(C)C(NC(=O)C(=NOC2(C(=O)O)CC2)c2csc(N)n2)C(=O)N1OS(=O)(=O)O (stereo not drawn) |  | zebrafish embryos | microinjection, 5 dpf |  | LD50 | > 1.69 nmol/embryo |

Repeated from above:
| SMILES | assay | system | setting | scale | quantity | result |
| --- | --- | --- | --- | --- | --- | --- |
| CC(C)C[C@@H](NC(=O)[C@@H](CCCCN)NC(=O)CNC(=O)CNC(=O)[C@@H]1CSSC[C@H](N)C(=O)NCC(=O)N[C@@H](CCCNC(=N)N)C(=O)N[C@@H](CCCNC(=N)N)C(=O)N[C@@H](C)C(=O)NCC(=O)NCC(=O)N[C@@H](CO)C(=O)N1)C(=O)N[C@H](C)C(=O)N[C@H](CCCCN)C(=O)N[C@H](CC(C)C)C(=O)N[C@H](C)C(=O)N[C@H](CCCCN)C(=O)N[C@H](CCCCN)C(=O)N[C@H](CC(C)C)C(=O)N[C@H](C)C(=O)N[C@H](CCCCN)C(=O)N[C@H](CC(C)C)C(=O)N[C@H](C)C(=O)N[C@H](CCCCN)C(=O)O |  | mouse, plasma | intravenous, 15 mg/kg |  | Vd | 0.0062 L |
| CCCCCCCCCCCC(=O)C(C)C(=O)N1CCC[C@H]1C(=O)NC(C)(C)C(=O)NC(C)(C)C(=O)NC(C)(C)C(=O)N[C@](C)(CC)C(=O)NCCC(=O)N[C@@H](C)C(=O)N[C@](C)(CC)C(=O)N[C@@H](C)C(=O)N[C@@H](CC(C)C)C(=O)N[C@](C)(CC)C(=O)NCCC(=O)N[C@@H](C)C(=O)N[C@](C)(CC)C(=O)NCCC(=O)N[C@@H](C)C(=O)NC(C)(C)C(=O)NC(C)(C)C(=O)NC(C)(C)C(=O)N[C@@H](C)C(=O)N[C@@H](CC(=O)O)C(=O)O (stereo partly drawn) | LC-MS | buffer with human neutrophil elastase | 40 µM, 720 min, pH 7.5, 37 °C | baseline: 0 h | remaining intact peptide | 53.3% and 46% and 57.6% |
